Experimental data pooled from the literature.
Parts stem from different laboratories: compare values within a part only.

Block 1
Target: Sal-like protein 4, full length isoform B (SALL4, Homo sapiens, UniProt Q9UJQ4-2, residues 1-616)
Technique: universal PBM
Molecule type: double-stranded DNA, one strand shown
Medium: in vitro
Concentration: not given
Setting: 8-mer, flanks averaged, mean of replicates
Direction: higher = stronger binding
Sequence | E-score
ACCCCTCT | -0.308
GGGAACAA | -0.0614
AAAACCCT | 0.125
CCGAGACG | -0.204
CATGAACG | -0.0757

Block 2
Target: RNA binding protein fox-1 homolog 2, RRM domain, GST-SBP tag (RBFOX2, Homo sapiens, UniProt O43251-10, residues 100-194)
Technique: RNA Bind-n-Seq
Molecule type: RNA
Medium: in vitro
Concentration: 365 nM
Setting: natural RNA segment, single round, ends assumed
Relative to: no-protein control
Direction: higher = stronger binding
Constant ends, left off below: GGGAGUUCUACAGUCCGACGAUC … UGGAAUUCUCGGGUGCCAA
Construct (chain): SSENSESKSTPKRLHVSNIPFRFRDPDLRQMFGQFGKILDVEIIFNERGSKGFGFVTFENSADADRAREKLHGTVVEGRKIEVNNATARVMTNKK
Sequence | RBNS enrichment (R)
UGCCCUUGGGGGUUGCAGGCUGCCCCCUUCCUGCCAGACCGGAGGGGCUGGGGGGAUCCCAGCAGGGGGAGGGCAAUCCCUUCACCCCAGUUGCCAAACAGACCCCCCAC | 0.323
AGUUCUCAGGAAUCCGACUGUAGAAUGCCACUCUGACUUCUUGAUGUUAAUCCAUGCUACCUAAAGUAAAGACAGGCUGCUUGGCCAAGUGGACACACUUGAGAAACAGU | 0.471
CCUAUAGAUUCUGUAGCAUUUGAGUGUGGCAAUAUUUUAAUUGUGUAUAGAUUUCUAAGAACCAACACUACUCAGUCUCCUGCUAGUCUGACUCCUGAAGCAUCAGCCCU | 0.509
CCGCCCACCUGUCUGCACUCCUGUCACUUGUAGGCCUGGCUGACUUACAGAUUUUUCCUUCCCCAGCUUGUGUCCACCCCUGUGCCAGGAGAGGUAGCACCAUCUCCUGG | 0.625
UAAGUUAAUGUUUUUAGUUUUUUCUCCUUUUCCCUGCCCUGCCCUGACUUUACAUGAAACAAGUUCAGUUUCGUUUACCAGCCUUUCUGGGUUCCCUUUGACUCCCCUGC | 1.06
CUCGUCUUUAGAAAGCUGUUUGAAUUCCCCCCGCCCCCAGUUUGGACCGUGUAGAUAUAACUGGAUAUACGGAUUUUUCUCUUUGUGCAGGCUUCUUAUGCCGUUGGUAU | 0.402
AUAUAUGUCCUCACAUACCUCUGCUGGAAGGACAGAGCGCUGUCUUAUGACUGGUAAGAGGGAGUGCUCCUGGACCCUGCUCGUGUGCCUUUUUCUACUGUUCAUUUUAU | 0.666

Block 3
Target: Interferon regulatory factor 7, full length, phosphomimetic (IRF7, Homo sapiens, UniProt Q92985, residues 1-503, S471D/S472D/S475D/S476D/S477D/S483D/S484D/S487D)
Technique: protein-binding microarray
Molecule type: double-stranded DNA, one strand shown
Medium: in vitro
Concentration: 2200 nM top
Setting: 60-bp whole probe
Together with: salmon DNA 0.4 mg/ml
Relative to: random background probes
Direction: higher = stronger binding
Constant ends, left off below: GCCTAGCAC … GTCTTGATTCGCTTGACGCTGCTG
Residues (chain): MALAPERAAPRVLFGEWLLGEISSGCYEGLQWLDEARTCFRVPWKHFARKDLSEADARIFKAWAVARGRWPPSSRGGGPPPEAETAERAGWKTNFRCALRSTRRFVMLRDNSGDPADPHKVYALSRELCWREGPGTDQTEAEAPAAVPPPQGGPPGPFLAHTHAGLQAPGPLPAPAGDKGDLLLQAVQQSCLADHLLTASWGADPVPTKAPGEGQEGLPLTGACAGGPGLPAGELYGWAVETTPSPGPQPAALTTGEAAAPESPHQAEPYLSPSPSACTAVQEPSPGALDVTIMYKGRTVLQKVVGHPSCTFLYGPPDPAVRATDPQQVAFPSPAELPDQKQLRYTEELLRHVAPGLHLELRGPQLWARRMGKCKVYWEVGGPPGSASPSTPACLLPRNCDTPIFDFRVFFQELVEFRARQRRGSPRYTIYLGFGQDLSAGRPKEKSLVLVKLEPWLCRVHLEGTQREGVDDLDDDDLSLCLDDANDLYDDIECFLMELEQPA
Sequence | fitted relative affinity [z-score]
TTAGGTTTCCTTCTCTTTTAGTGCTAG | 2.21
CTTTCTCTCTGTGACACAGAGTGCTAG | 2.39
CTTGGTAAATTTAGCCGACGGTGCTAG | -0.184
GACGGACTGGGCCTCGGGACGTGCTAG | -1.16
TCATCTTTACTTCACTCACTGTGCTAG | 1.7
GTAGGACTGGACACTGGGTTAGTGCTA | -0.851

Other studies, line by line
Molecule | target | test | system | conditions | scale | measurement | result
PhoQ, residues 284 288 289 292 302 303 QWGLFV | PhoP, residues 12 14 15 18 19 AQALL (Escherichia coli, UniProt P23836) | Sort-seq, refers to: YFP reporter | E. coli | PhoQ-PhoP variant library, together with: 10 µM Mg2+ | relative to: high Mg2+ state, higher = stronger signaling | fold induction | 4.15

For quick reference, copied from above (block 2):
Sequence | RBNS enrichment (R)
UAAGUUAAUGUUUUUAGUUUUUUCUCCUUUUCCCUGCCCUGCCCUGACUUUACAUGAAACAAGUUCAGUUUCGUUUACCAGCCUUUCUGGGUUCCCUUUGACUCCCCUGC | 1.06
UGCCCUUGGGGGUUGCAGGCUGCCCCCUUCCUGCCAGACCGGAGGGGCUGGGGGGAUCCCAGCAGGGGGAGGGCAAUCCCUUCACCCCAGUUGCCAAACAGACCCCCCAC | 0.323
CUCGUCUUUAGAAAGCUGUUUGAAUUCCCCCCGCCCCCAGUUUGGACCGUGUAGAUAUAACUGGAUAUACGGAUUUUUCUCUUUGUGCAGGCUUCUUAUGCCGUUGGUAU | 0.402
